Measurements pooled from the literature.
Each line is one published result; not all experiments were run side by side.
Organism: herpes simplex virus 1

CCOC(=O)[C@@H](C)NP(=O)(CO[C@H](CF)CN1CNC(N)=NC1=O)N[C@H](C)C(=O)OCC
EC50 (cytopathic effect; HEL, KOS, TK+): > 100 µM

N[C@H]1C[C@@H]1c1ccc(-c2cccc(O)c2)cc1
IE gene expression (qRT-PCR, item: ICP27 and ICP4 mRNA; HeLa; 50 µM, 5 h pretreatment, infection 2 h): inhibited

CCOC(=O)[C@@H](C)NP(=O)(CO[C@H](CF)Cn1cnc(N)nc1=O)N[C@H](C)C(=O)OCC
EC50 (cytopathic effect; HEL, KOS, TK+): > 100 µM

COC(=O)c1cc(O)c(=O)c(O)cc1C
antiviral activity (viral replication; 1 µM): inactive

N=C(NO)NN=Cc1ccc2ccccc2n1
selectivity index (plaque reduction; Vero, McKrae; relative to: TC50 over IC50): 3.4

CC(C)OC(=O)[C@H](Cc1ccccc1)NP(=O)(COCCn1cnc2c(=O)[nH]c(=O)[nH]c21)N[C@@H](Cc1ccccc1)C(=O)OC(C)C
EC50 (cytopathic effect; HEL, KOS): > 100 µM

Cc1ccc(O)c(C=NNC(=N)NO)n1
plaque reduction (viral replication; Vero, McKrae; 100 µM): 100%

Cc1ccc(S(=O)(=O)Nn2c3c(cc(-c4nc5ccccc5s4)c2=O)CCCC3)cc1
viral titre reduction (plaque; Vero; non-toxic concentration, mean of three viral titres): 40%

Cc1cc(O)c(O)c(=O)c(O)c1
inhibition (viral replication; 5 µM): inhibited

CC(=O)OC[C@H]1O[C@@H](Sc2sc(C(=O)c3ccc(C)cc3)c(N)c2-c2nc3ccccc3s2)[C@H](OC(C)=O)[C@@H](OC(C)=O)[C@H]1OC(C)=O
plaque reduction (nontoxic concentration, mean over three virus titres): 80%
